Results from different studies.
Values joined by “and” are separate records of one study, mostly repeats; a detail may differ. Numbers after ± are the reported error.

`COC(=O)N[C@@H](C)CNc1nccc(-c2cn(C(C)C)nc2-c2cc(Cl)cc(NS(C)(=O)=O)c2F)n1` has an AUC(0-t) of 26600 ng·h/mL (human patients, plasma; oral, 450 mg twice daily, day 1, single dose, median, together with: binimetinib 45 mg once daily).
The AUC(0-t) of `CC[C@H](C)[C@@H]([C@@H](CC(=O)N1CCC[C@H]1[C@H](OC)[C@@H](C)C(=O)N[C@@H](Cc1ccccc1)C(=O)NCCCO)OC)N(C)C(=O)[C@@H](NC(=O)[C@H](C(C)C)N(C)C)C(C)C` is reported as 1580 ng·h/mL (human patients, plasma; intravenous, 30 mg/m², cycle 1 geometric mean).
`CO[C@H]1C[C@@H]2CC[C@@H](C)[C@@](O)(O2)C(=O)C(=O)N2CCCC[C@H]2C(=O)O[C@H]([C@H](C)C[C@@H]2CC[C@@H](OC(=O)NCCOCCOCCOCCOCCOCCOCCOCCOCCC(=O)N3CCc4cc(Cn5nc(-c6ccc7oc(N)nc7c6)c6c(N)ncnc65)ccc4C3)[C@H](OC)C2)C[C@@H](O)[C@H](C)/C=C(\C)[C@@H](O)[C@@H](OC)C(=O)[C@H](C)C[C@H](C)/C=C/C=C/C=C/1C` gave an AUC(0-t) of 1080 ng·h/mL (human, plasma; intravenous, 16 mg, cycle 1 day 1, arithmetic mean).
`Cn1cc(-c2cn3nccc3c(-c3cnn([C@]4(CC#N)C[C@@H](C#N)C4)c3)n2)cn1` has an AUC(0-t) of 2770 ng·h/mL (healthy humans fasted, plasma; 400 mg single dose, geometric mean).
For `CNC(=O)c1ccc(-c2cnc3ncc(Cc4ccc5ncccc5c4)n3n2)cc1F`, the AUC(0-t) was 6590 ng·h/mL (human, mild NCI classification, plasma; oral, 200 mg, adjusted geometric mean).
`C=CC(=O)N(C)CCOc1c(N)ncnc1-c1cc(F)cc(NC(=O)c2ccc(C3CC3)cc2F)c1C` has an AUC(0-t) of 1160 ng·h/mL (human, whole blood; oral, 600 mg, single ascending dose).
For `Cc1cc(C)c(CNC(=O)c2cc(Cl)c3c(c2C)O[C@@](C)([C@H]2CC[C@H](N(C)C)CC2)O3)c(=O)[nH]1`, the AUC(0-t) was 12000 ng·h/mL (human, plasma; oral, 200 mg [14C] single dose, 24 h).
The AUC(0-t) of `O=C(O)CCC(=O)O.[2H]C([2H])([2H])Oc1cc(C)c2[nH]ccc2c1CN1CC[C@@H](C2CC2)C[C@H]1c1ccc(C(=O)O)cc1` is reported as 135000 ng·h/mL (LC-MS/MS, geometric mean; human, plasma; 400 mg, single dose, fasting).
With `CN(CC#N)C(=O)C[C@H](Nc1nc2ccccc2[nH]1)c1cccc(C(F)(F)F)c1` the AUC(0-t) was 20600 ± 4300 ng·h/mL (human; intravenous infusion, 5 mg/kg, 1 mg/mL formulation).
`C[C@H]1CN(C(=O)CC#N)[C@]12CCN(c1ncnc3[nH]ccc13)C2` has an AUC(0-t) of 59.6 ng·h/mL (healthy human, plasma; oral, 3 mg single, mean).
The AUC(0-t) of `CO[C@@H]1[C@H](OC(=O)N2CC(CCN3CCOCC3)C2)CC[C@]2(CO2)[C@H]1[C@@]1(C)O[C@@H]1CC=C(C)C` is reported as 9.61 ± 6.71 ng·h/mL (humans, plasma; subcutaneous, 1.8 mg twice weekly, fifth dose).
`Cl.[2H]C([2H])([2H])CC(=O)c1cnc(NC(=O)C2CC2)cc1Nc1cccc(-c2ncn(C([2H])([2H])[2H])n2)c1OC` gave an AUC(0-t) of 4100 ng·h/mL (geometric mean; human; oral, 50 mg single dose, fasted, liquid).
`NC1(C(=O)N[C@@H](CCO)c2ccc(Cl)cc2)CCN(c2nc[nH]c3nccc2-3)CC1` has an AUC(0-t) of 1160 ng·h/mL and 1100 ng·h/mL and 1840 ng·h/mL (human, plasma; dose not given, together with: enzalutamide).
The AUC(0-t) of `CCNCc1cc(Nc2ccnc3cc(Cl)ccc23)ccc1O` is reported as 38000 ng·h/mL (human, both sexes, plasma; oral, dose not given, non-fixed combination).
The AUC(0-t) of `CC(C)c1nc(N(C)S(C)(=O)=O)nc(-c2ccc(F)cc2)c1/C=C/[C@@H](O)C[C@@H](O)CC(=O)O` is reported as 54.6 ng·h/mL (human, plasma; oral, 20 mg, day 2, mean, alone).
`Cc1ccc(=O)n(-c2ccccc2)c1` gave an AUC(0-t) of 41800 ng·h/mL (healthy human; oral, 600 mg single, alone; arithmetic mean).
With `C[C@H]1[C@@H](O)O[C@@H]2O[C@@]3(C)CC[C@H]4[C@H](C)CC[C@@H]1[C@@]24OO3` the AUC(0-t) was 1470 ng·h/mL (human, both sexes, plasma; oral, dose not given, non-fixed combination).
`Cc1cc(-c2nnc(N)nc2-c2ccc(F)cc2)cc(Cl)n1` has an AUC(0-t) of 5670 ng·h/mL (human patients, plasma; oral, 75 mg capsule once daily, multiple doses, arithmetic mean).
With `CC(C)NC(=O)COc1cccc(-c2nc(Nc3ccc4[nH]ncc4c3)c3ccccc3n2)c1` the AUC(0-t) was 9200 ng·h/mL (human, male, fed, plasma; oral, 200 mg, day 3, geometric mean).
`Cc1cc(C)c(CNC(=O)c2cc(Cl)c3c(c2C)O[C@@](C)([C@H]2CC[C@H](N(C)C)CC2)O3)c(=O)[nH]1` gave an AUC(0-t) of 3270 ng·h/mL (mean; healthy male humans, plasma; oral, 25 mg, day 11, together with: itraconazole).
With `C#C[C@]1(CO)O[C@@H](n2cnc3c(N)nc(F)nc32)C[C@@H]1O` the AUC(0-t) was 3.43 µM·h (human, fed, plasma; oral, 30 mg, geometric mean).
With `COc1ccc([C@@H](O)c2cc(-c3ncnc4cc(N5CCOCC5)ccc34)c(F)cc2Cl)nn1` the AUC(0-t) was 1020 ng·h/mL (healthy human volunteers, plasma; oral, 100 mg single dose, tablet, fasted, geometric mean).
For `CC(C)n1c(Nc2cccnc2)nc2cnc(Nc3ccc(N4CCN(C)CC4)cc3)nc21`, the AUC(0-t) was 858 ng·h/mL (LC-MS/MS; human, male, plasma; oral, 100 mg, day 1, single dose, given alone).
`[H]/N=C(/N)c1ccc(NCc2nc3cc(C(=O)N(CCC(=O)O)c4ccccn4)ccc3n2C)cc1` gave an AUC(0-t) of 876 ng·h/mL (healthy human subjects, plasma; oral, 150 mg, dabigatran etexilate, geometric mean, together with: fruquintinib 5 mg).
`CNC(=O)n1ccc2cc(Oc3ccnc(NC(=O)c4ccc(C5CCN(CCO)CC5)cc4)c3)c(OCCOC)cc21` has an AUC(0-t) of 98.4 ng·h/mL (healthy human, plasma; oral, 35 mg, high-fat meal).
With `NC[C@@]1(CC(=O)O)[C@@H]2CC[C@H]3C[C@@H]2[C@@H]1C3` the AUC(0-t) was 1730 ng·h/mL (human, normal renal function, plasma; dose not given, geometric least squares mean).
With `C=CCn1c(=O)c2cnc(Nc3ccc(N4CCN(C)CC4)cc3)nc2n1-c1cccc(C(C)(C)O)n1` the AUC(0-t) was 4.53 µM·h (human, plasma; oral, 125 mg twice daily, cycle 1 day 17, geometric mean, together with: durvalumab 1500 mg intravenous).
For `N#Cc1ccc([C@H]2CCc3cncn32)c(F)c1`, the AUC(0-t) was 3330 ng·h/mL (human, both sexes, plasma; oral, 50 mg).
`N#CN1C[C@H](n2nc(-c3ccc(Oc4ccc(Cl)cn4)cc3)c(C(N)=O)c2N)CCC12CC2` has an AUC(0-t) of 21200 ± 7480 ng·h/mL (human, fasted, plasma; oral, 600 mg).
With `CCCn1cc(C)c2c(=O)[nH]c(-c3cc(S(=O)(=O)N4CCN(CC)CC4)ccc3OCC)nc21` the AUC(0-t) was 294 ± 184 ng·h/mL (human, plasma; oral, 100 mg, together with: alcoholic beverage 0.5 g/kg).

Repeated from above:
`N#CN1C[C@H](n2nc(-c3ccc(Oc4ccc(Cl)cn4)cc3)c(C(N)=O)c2N)CCC12CC2` has an AUC(0-t) of 21200 ± 7480 ng·h/mL (human, fasted, plasma; oral, 600 mg).
With `NC[C@@]1(CC(=O)O)[C@@H]2CC[C@H]3C[C@@H]2[C@@H]1C3` the AUC(0-t) was 1730 ng·h/mL (human, normal renal function, plasma; dose not given, geometric least squares mean).
The AUC(0-t) of `O=C(O)CCC(=O)O.[2H]C([2H])([2H])Oc1cc(C)c2[nH]ccc2c1CN1CC[C@@H](C2CC2)C[C@H]1c1ccc(C(=O)O)cc1` is reported as 135000 ng·h/mL (LC-MS/MS, geometric mean; human, plasma; 400 mg, single dose, fasting).
`[H]/N=C(/N)c1ccc(NCc2nc3cc(C(=O)N(CCC(=O)O)c4ccccn4)ccc3n2C)cc1` gave an AUC(0-t) of 876 ng·h/mL (healthy human subjects, plasma; oral, 150 mg, dabigatran etexilate, geometric mean, together with: fruquintinib 5 mg).
